Results pooled from the literature.
Each line is one published result; not all experiments were run side by side. ± gives the spread as reported.

The glucose consumption of `C[C@H](CC(=O)C[C@@H](C)[C@H]1C[C@H](O)[C@@]2(C)C3=C(C(=O)C[C@]12C)[C@@]1(C)CCC(=O)C(C)(C)[C@@H]1C[C@@H]3O)C(=O)O` is reported as 11.7 ± 0.34 mmol/L (3T3-L1 adipocytes; 12.5 µg/mL).
The viability of `COc1ccc([C@@H]2CC(=O)c3c(O)cc(O[C@@H]4O[C@H](CO[C@@H]5O[C@@H](C)[C@H](O)[C@@H](O)[C@H]5O)[C@@H](O)[C@H](O)[C@H]4O)cc3O2)cc1O` is reported as 47.1% (A549; cell growth or viability, MTS; 100 µg/mL, 72 h).
For `NCCCCCO[C@H]1O[C@H](COS(=O)(=O)O)[C@@H](O[C@@H]2O[C@@H](C(=O)O)[C@@H](O[C@H]3O[C@H](COS(=O)(=O)O)[C@@H](O[C@@H]4O[C@@H](C(=O)O)[C@@H](O[C@H]5O[C@H](COS(=O)(=O)O)[C@@H](O[C@@H]6O[C@@H](C(=O)O)[C@@H](O[C@H]7O[C@H](COS(=O)(=O)O)[C@@H](O[C@@H]8O[C@@H](C(=O)O)[C@@H](O)[C@H](O)[C@H]8OS(=O)(=O)O)[C@H](O)[C@H]7NS(=O)(=O)O)[C@H](O)[C@H]6OS(=O)(=O)O)[C@H](O)[C@H]5NS(=O)(=O)O)[C@H](O)[C@H]4OS(=O)(=O)O)[C@H](O)[C@H]3NS(=O)(=O)O)[C@H](O)[C@H]2OS(=O)(=O)O)[C@H](O)[C@H]1NS(=O)(=O)O`, “cell surface heparan sulfate” read “no effect” (human corneal epithelial cells; flow cytometry; concentration not given).
`O=Cc1c(O)ccc2ccccc12`: “log2 fold change” 5.48 (HUVEC; RNA sequencing, measured: ATP6V0D2; 75 µM, 24 h; reference: DMSO).
`CC(=O)OC[C@H]1O[C@@H](Sc2sc(C(=O)c3ccc(C)cc3)c(N)c2-c2nc3ccccc3s2)[C@H](OC(C)=O)[C@@H](OC(C)=O)[C@H]1OC(C)=O` gave a growth of 61.2% (RPMI-8226; SRB; 10 µM, 48 h).
`COc1cc(CNC(=O)C[C@H](C)CCC=C(C)C)ccc1OCc1cn(-c2ccc(C#N)cc2)nn1` has a growth percent of 56.6% (UACC-62 melanoma cells; SRB; 10 µM, 48 h).
For `COc1cc2c(OC3OCC(OC)C(OC)C3OC(=O)c3ccc(Br)cc3)c3c(c(-c4ccc5c(c4)OCO5)c2cc1OC)C(=O)OC3` (stereo not shown), mRNA level read “decreased” (FaDu; RT-qPCR, measured: CTSD; concentration not given, 72 h).
With `COc1cc(CNC(=O)C[C@H](C)CCC=C(C)C)ccc1OCc1cn(-c2cccc(Cl)c2)nn1` the growth percent was 54.2% (NCI-H226; SRB; 10 µM, 48 h).
For `CCOC(=O)C1NC(c2ccc[n+](C)c2)C23c4c5c6c7c8c9c(c%10c%11c2c2c4c4c%12c5c5c6c6c8c8c%13c9c9c%10c%10c%11c%11c2c2c4c4c%12c%12c5c5c6c8c6c8c%13c9c9c%10c%10c%11c2c2c4c4c%12c5c6c5c8c9c%10c2c45)C713` (stereo not shown), protein level read “decreased” (PEL cells; Western blot, measured: β-catenin; 20 µM, 8 to 24 h).
Under caspase-3/7 activity, `CCN(CC)C1CCN(Cc2cc(C#CCO)cc(I)c2O)CC1` is recorded as “no effect” (NUGC-3 (p53 Y220C); apoptosis, ApoTox-Glo Triplex; 6.25 to 100 µM, 6 h, 37 °C).
For `CC(Cc1ccc(Cl)cc1)=C(c1ccc(Cl)cc1)c1ccc(OCCN(C)C)cc1`, the GI50 was 5.5 µM (SF-295; cell growth or viability, SRB).
`CCCC[C@@H]1NC(=O)[C@@H](NC(=O)[C@H](CCC(=O)O)NC(=O)[C@H](CCC(=O)O)NC(C)=O)CCCCNC(=O)[C@@H](NC(=O)CN2CCN(CC(=O)O)CCN(CC(=O)O)CCN(CC(=O)O)CC2)CCCCNC(=O)[C@H](C(C)C)NC(=O)[C@@H]2CCCN2C(=O)[C@H](CCCNC(=N)N)NC(=O)CNC(=O)[C@H](Cc2c[nH]c3ccccc23)NC(=O)[C@H](CCCNC(=N)N)NC(=O)[C@@H](Cc2ccccc2)NC(=O)[C@H](Cc2c[nH]cn2)NC(=O)[C@H](CCC(=O)O)NC1=O` [indium-111 labelled] — result for “activity retained after efflux”: 68.6 ± 1.43% (B16/F1; concentration not given, 2 h).
With `CC(C)[C@H](NC(=O)[C@@H]1CCCN1C(=O)[C@H](CCCNC(=N)N)NC(=O)[C@H](CS)NC(=O)[C@H](Cc1c[nH]c2ccccc12)NC(=O)[C@H](CCCNC(=N)N)NC(=O)[C@@H](Cc1ccccc1)NC(=O)[C@H](Cc1c[nH]cn1)NC(=O)[C@H](CCC(=O)O)NC(=O)[C@H](CS)NC(=O)[C@H](CS)NC(=O)[C@H](CCCCN)NC(=O)[C@@H]1CC(=O)N[C@@H](CCCNC(=N)N)C(=O)NCC(=O)N[C@@H](CC(=O)O)C(=O)N[C@H](Cc2ccc(O)cc2)C(=O)N1)C(N)=O` the uptake inhibition was 88.1% (B16/F1; competitor; 0.1 µM, 120 min, 25 °C, added: 99mTc-RGD-Lys-(Arg11)CCMSH; reference: no blocking).
The TGI of `O=C1Nc2ccc(F)cc2C1=Cc1c(Cl)[nH]c2c1ccc1ccccc12` is reported as 11 µM (renal cancer subpanel of NCI-60; 48 h).
Under glucose consumption, `CC(C)=CCc1cc([C@@H]2CC(=O)c3ccc(O)c(CC=C(C)C)c3O2)c(O)c(CC=C(C)C)c1O` is recorded as “inactive” (3T3-L1 adipocytes; activator; up to 100 µM).
`COc1ccc([C@@H]2CC(=O)c3c(O)cc(O[C@@H]4O[C@H](CO[C@@H]5O[C@@H](C)[C@H](O)[C@@H](O)[C@H]5O)[C@@H](O[C@H]5O[C@H](CO)[C@@H](O)[C@H](O)[C@H]5O)[C@H](O)[C@H]4O)cc3O2)cc1O` has a cell count of 13300 ± 468 (A549; trypan blue exclusion; 100 µg/mL, 48 h).
The promoter activity of `Cc1nc(C)c(C=[N+]([O-])C(C)(C)C)nc1C` is reported as 84.3% (N2a; luciferase reporter, measured: PGC-1α; 300 µM, added: MPP+).
`Cc1cc(/C=C2\CN(C(C)C)C/C(=C\c3cc(C)c(O)c(C)c3)C2=O)cc(C)c1O` — result for “G2/M phase cells”: 25.3 ± 2.07% (HeLa; PI flow cytometry; 10 µM, 24 h).
With `COc1ccc(C2=Nn3c(NN=C4C(=O)N(Cc5ccccc5)c5ccc(Cl)cc54)nnc3SC2)cc1` the inhibition was 14% (MDA-MB-435; cell growth or viability, SRB; 10 µM).
For `Cc1nc2ccccc2c(=O)n1N`, the viability was 28% (LoVo; cell growth or viability, LDH; 200 µg/mL, 24 h).
For `CCCCCCCCCCCCCC[C@@H](O)[C@@H](O)[C@H](CO[C@H]1O[C@H](CO)[C@H](O)[C@H](O)[C@H]1O)NC(=O)CCCCCCc1ccccc1`, the IFN-γ/IL-4 ratio was 1.73 ± 0.17 (human Vα24+ NKT cells; concentration not given, HeLa-CD1d co-culture; reference: α-GalCer).
The growth percent of `COc1cc(CNC(=O)C[C@H](C)CCC=C(C)C)ccc1OCc1cn(-c2ccccc2F)nn1` is reported as 81.6% (K562 leukaemia cells; SRB; 10 µM, 48 h).
With `COc1ccc2cc3[n+](cc2c1OCc1cn(Cc2ccc(C(C)(C)C)cc2)nn1)CCc1cc2c(cc1-3)OCO2.[Cl-]` the inhibition was over 50% (SW1990; cell growth, MTT; 7.8 µM).
The inhibition of `C[C@@H](C(=O)Nc1ccc(Cn2cc(C(F)(F)F)ccc2=O)cc1)N(C)C` is reported as 64.2% (NIH3T3; cell growth or viability, CCK-8; 1 mM).
For `COC(=O)[C@@H]1[C@@H](OC)[C@H](OC(=O)c2cc(OC)c(OC)c(OC)c2)C[C@@H]2CN3CC[C@]4(O[C@@H]3C(=O)[C@@H]21)C(=O)Nc1cc(OC)ccc14`, “late apoptotic cells” read 82.7 ± 2.81% (RS4;11; annexin V/PI flow cytometry; 10 µM, 72 h).
The GI50 of `CC/C=C\C/C=C\C/C=C\C/C=C\C/C=C\C/C=C\CCC(=O)Nc1ccn(C2OC(CO)C(O)C2(F)F)c(=O)n1` (stereo not shown) is reported as 0.0791 µM (SF-295; cell growth or viability, SRB).
`COc1cc(CNC(=O)C[C@H](C)CCC=C(C)C)ccc1OCc1cn(-c2ccc(F)cc2)nn1` gave a growth percent of 64.4% (UACC-62 melanoma cells; SRB; 10 µM, 48 h).
`O=C(OCc1cccc(O)c1O)c1ccc(O)c(CO)c1`: superoxide production “no effect” (p47phox knockout mouse CMEC; lucigenin chemiluminescence; 5 µM, 24 h).
For `O=C1Nc2ccccc2/C1=N\Nc1nnc2n1N=C(c1ccc(Cl)cc1)CS2`, the inhibition was 12% (SNB-75; cell growth or viability, SRB; 10 µM).
Under glucose consumption, `COc1c2c(cc3c1[C@@H]1Oc4c(ccc(O)c4CC=C(C)C)[C@@H]1CO3)OC(C)(C)C=C2` is recorded as “inactive” (3T3-L1 adipocytes; activator; up to 100 µM).
For `Cc1cc([C@H](C(=O)N2C[C@H](O)C[C@H]2C(=O)N[C@@H](CC(=O)N2CCC(N3CCC(C#Cc4ccc(C(=O)N[C@H]5C(C)(C)[C@H](Oc6ccc(C#N)c(Cl)c6)C5(C)C)cc4)CC3)CC2)c2ccc(-c3scnc3C)cc2)C(C)C)on1`, “lowest effective concentration” read 100 nM (MDA-MB-453, MCF7, MDA-MB-415; colony formation; 240 h, full serum).
For `CC(=O)OC[C@H]1O[C@@H](Sc2sc(C(=O)c3ccc(Br)cc3)c(N)c2-c2nc3ccccc3s2)[C@H](OC(C)=O)[C@@H](OC(C)=O)[C@@H]1OC(C)=O`, the growth was 69.6% (SF-295; SRB; 10 µM, 48 h; reference: untreated).
For `CC(C)[C@H](NC(=O)[C@@H]1CCCN1C(=O)[C@H](CCCNC(=N)N)NC(=O)[C@H](CS)NC(=O)[C@H](Cc1c[nH]c2ccccc12)NC(=O)[C@H](CCCNC(=N)N)NC(=O)[C@@H](Cc1ccccc1)NC(=O)[C@H](Cc1c[nH]cn1)NC(=O)[C@H](CCC(=O)O)NC(=O)[C@H](CS)NC(=O)[C@H](CS)NC(=O)CCCCCNC(=O)[C@@H]1CC(=O)N[C@@H](CCCNC(=N)N)C(=O)NCC(=O)N[C@@H](CC(=O)O)C(=O)N[C@H](Cc2ccc(O)cc2)C(=O)N1)C(N)=O`, the survival decrease was 67% (B16/F1; 0.1 µM, 3 h, 37 °C, read 5 days later; reference: untreated).
`O=C(N1CCCC1)n1cc(-c2ccc(-c3ccccc3)cc2)nn1` has an SILAC ratio of 0.97 ± 0.01 (mouse T-cells; N-terminal labeled proteins, N-terminal enrichment proteomics, measured: PAIP2B; 1 nM, 6 h; reference: DMSO).

Some of these lines once more:
For `CCCCCCCCCCCCCC[C@@H](O)[C@@H](O)[C@H](CO[C@H]1O[C@H](CO)[C@H](O)[C@H](O)[C@H]1O)NC(=O)CCCCCCc1ccccc1`, the IFN-γ/IL-4 ratio was 1.73 ± 0.17 (human Vα24+ NKT cells; concentration not given, HeLa-CD1d co-culture; reference: α-GalCer).
The growth percent of `COc1cc(CNC(=O)C[C@H](C)CCC=C(C)C)ccc1OCc1cn(-c2ccccc2F)nn1` is reported as 81.6% (K562 leukaemia cells; SRB; 10 µM, 48 h).
With `COc1ccc2cc3[n+](cc2c1OCc1cn(Cc2ccc(C(C)(C)C)cc2)nn1)CCc1cc2c(cc1-3)OCO2.[Cl-]` the inhibition was over 50% (SW1990; cell growth, MTT; 7.8 µM).
